Assay results pooled from the literature.
Parts stem from different laboratories: compare values within a part only. “And” joins repeats or separate records; there may be more than shown.
Sequence of UniProt Q99640 (whole entry, looked up): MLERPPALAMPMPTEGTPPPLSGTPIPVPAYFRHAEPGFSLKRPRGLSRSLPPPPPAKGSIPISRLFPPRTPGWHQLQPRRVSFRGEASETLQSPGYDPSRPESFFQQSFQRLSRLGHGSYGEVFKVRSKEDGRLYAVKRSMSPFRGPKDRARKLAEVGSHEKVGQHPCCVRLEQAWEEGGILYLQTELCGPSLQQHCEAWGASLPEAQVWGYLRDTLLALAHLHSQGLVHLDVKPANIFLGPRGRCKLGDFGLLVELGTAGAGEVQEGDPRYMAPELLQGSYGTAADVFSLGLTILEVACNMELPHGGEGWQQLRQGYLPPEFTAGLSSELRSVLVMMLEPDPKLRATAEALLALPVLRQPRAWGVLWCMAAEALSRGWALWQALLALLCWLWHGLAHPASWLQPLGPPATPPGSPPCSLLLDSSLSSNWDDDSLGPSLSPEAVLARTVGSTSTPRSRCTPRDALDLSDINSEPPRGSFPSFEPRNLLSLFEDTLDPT
Sequence of UniProt Q9BVS4 (whole entry, looked up): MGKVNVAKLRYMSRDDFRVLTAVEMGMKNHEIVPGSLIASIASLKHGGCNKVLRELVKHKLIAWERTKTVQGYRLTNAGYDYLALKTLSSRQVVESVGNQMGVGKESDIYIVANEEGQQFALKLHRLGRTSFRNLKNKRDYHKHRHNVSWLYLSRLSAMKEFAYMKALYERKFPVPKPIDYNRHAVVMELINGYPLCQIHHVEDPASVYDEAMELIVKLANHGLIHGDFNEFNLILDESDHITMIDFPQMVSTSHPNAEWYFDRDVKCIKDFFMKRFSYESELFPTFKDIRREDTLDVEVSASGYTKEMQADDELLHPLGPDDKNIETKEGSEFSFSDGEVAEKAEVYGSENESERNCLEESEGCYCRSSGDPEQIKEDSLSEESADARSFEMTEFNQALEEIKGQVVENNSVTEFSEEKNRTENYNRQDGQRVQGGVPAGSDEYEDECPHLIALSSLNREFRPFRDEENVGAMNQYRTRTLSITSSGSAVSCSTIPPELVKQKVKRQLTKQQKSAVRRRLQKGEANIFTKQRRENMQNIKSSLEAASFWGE
Sequence of UniProt Q8TF76 (whole entry, looked up): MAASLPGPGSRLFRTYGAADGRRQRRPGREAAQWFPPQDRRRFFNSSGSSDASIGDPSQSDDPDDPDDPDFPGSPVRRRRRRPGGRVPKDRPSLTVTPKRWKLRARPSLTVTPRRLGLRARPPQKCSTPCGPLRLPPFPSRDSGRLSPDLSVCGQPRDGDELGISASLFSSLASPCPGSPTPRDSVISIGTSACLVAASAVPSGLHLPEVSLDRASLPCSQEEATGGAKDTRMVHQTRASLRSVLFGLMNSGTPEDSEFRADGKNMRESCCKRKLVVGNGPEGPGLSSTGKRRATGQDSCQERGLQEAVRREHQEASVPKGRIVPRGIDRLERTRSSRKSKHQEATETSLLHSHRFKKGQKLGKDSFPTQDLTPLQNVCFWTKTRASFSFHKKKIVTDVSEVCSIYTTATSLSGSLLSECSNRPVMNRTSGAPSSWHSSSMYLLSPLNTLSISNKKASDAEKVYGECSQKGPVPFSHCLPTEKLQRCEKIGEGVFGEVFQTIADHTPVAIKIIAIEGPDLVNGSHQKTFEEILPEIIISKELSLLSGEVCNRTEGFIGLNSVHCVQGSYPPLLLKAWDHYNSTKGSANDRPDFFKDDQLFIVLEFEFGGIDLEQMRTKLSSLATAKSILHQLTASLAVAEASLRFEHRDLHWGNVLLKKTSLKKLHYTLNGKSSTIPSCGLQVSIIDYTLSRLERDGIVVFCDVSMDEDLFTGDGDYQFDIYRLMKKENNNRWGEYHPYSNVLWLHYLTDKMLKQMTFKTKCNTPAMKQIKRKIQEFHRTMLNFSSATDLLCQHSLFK
Sequence of UniProt P04629 (whole entry, looked up): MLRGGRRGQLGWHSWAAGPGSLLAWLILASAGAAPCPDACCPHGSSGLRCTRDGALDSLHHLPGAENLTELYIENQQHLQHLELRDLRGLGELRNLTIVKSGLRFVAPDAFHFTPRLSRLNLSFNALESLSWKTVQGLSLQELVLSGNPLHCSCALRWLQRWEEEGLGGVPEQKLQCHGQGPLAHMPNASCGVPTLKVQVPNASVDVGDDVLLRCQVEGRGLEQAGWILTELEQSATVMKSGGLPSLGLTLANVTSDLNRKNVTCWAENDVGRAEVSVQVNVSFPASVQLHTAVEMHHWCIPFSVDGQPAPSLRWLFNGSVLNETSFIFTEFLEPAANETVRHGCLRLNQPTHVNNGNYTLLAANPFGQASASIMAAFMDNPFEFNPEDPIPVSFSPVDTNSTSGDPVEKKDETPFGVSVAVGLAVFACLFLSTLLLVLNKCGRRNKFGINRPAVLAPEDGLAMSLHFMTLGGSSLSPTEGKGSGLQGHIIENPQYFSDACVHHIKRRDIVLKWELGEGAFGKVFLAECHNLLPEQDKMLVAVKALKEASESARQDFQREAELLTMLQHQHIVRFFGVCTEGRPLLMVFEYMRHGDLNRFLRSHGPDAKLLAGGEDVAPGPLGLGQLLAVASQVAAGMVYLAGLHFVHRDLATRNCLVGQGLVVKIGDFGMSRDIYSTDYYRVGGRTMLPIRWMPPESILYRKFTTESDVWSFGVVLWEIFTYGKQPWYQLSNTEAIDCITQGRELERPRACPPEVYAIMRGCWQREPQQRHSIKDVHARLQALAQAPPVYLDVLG
Sequence of UniProt Q8TD08 (whole entry, looked up): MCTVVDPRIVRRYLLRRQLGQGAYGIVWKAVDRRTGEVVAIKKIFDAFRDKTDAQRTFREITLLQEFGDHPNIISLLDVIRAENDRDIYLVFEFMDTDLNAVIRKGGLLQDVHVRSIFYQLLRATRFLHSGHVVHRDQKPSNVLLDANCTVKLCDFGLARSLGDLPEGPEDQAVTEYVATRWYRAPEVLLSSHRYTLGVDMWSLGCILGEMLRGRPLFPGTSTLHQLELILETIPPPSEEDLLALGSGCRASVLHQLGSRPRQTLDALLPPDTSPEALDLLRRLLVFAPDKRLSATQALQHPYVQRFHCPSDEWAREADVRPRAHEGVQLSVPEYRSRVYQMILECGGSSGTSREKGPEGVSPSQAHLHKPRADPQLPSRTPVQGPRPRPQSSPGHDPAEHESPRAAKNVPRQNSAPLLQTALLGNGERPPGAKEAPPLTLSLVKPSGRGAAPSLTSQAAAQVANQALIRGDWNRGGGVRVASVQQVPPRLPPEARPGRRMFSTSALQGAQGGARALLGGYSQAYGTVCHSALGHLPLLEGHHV
Sequence of UniProt Q15418 (whole entry, looked up): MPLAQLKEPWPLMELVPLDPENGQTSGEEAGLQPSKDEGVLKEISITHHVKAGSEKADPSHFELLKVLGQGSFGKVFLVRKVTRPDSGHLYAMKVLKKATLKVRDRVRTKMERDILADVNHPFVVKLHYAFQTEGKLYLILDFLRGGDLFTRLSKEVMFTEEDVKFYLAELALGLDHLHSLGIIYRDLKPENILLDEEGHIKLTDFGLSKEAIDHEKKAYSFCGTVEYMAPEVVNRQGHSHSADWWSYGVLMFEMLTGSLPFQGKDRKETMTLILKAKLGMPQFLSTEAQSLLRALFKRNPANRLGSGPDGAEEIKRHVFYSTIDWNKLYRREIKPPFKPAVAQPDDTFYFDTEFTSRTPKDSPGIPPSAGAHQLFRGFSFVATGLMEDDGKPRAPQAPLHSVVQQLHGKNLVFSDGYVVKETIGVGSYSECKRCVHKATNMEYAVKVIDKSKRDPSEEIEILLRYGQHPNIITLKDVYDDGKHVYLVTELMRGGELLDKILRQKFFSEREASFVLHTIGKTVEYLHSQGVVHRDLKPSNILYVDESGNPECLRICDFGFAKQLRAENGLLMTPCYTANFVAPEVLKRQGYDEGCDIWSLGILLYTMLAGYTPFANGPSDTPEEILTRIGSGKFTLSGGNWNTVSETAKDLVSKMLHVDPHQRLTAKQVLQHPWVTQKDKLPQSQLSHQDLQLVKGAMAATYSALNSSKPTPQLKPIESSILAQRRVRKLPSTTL
Sequence of UniProt Q8N752 (whole entry, looked up): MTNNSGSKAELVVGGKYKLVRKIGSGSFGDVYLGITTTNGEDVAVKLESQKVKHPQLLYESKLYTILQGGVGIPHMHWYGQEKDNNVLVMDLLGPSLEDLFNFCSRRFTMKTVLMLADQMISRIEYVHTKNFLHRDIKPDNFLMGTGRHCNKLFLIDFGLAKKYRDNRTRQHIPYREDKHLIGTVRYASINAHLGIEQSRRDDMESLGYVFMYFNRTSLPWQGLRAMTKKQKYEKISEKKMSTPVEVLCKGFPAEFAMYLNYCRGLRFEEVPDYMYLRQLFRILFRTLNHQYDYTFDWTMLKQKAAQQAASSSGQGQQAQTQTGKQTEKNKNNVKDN
Sequence of UniProt Q9HC98 (whole entry, looked up): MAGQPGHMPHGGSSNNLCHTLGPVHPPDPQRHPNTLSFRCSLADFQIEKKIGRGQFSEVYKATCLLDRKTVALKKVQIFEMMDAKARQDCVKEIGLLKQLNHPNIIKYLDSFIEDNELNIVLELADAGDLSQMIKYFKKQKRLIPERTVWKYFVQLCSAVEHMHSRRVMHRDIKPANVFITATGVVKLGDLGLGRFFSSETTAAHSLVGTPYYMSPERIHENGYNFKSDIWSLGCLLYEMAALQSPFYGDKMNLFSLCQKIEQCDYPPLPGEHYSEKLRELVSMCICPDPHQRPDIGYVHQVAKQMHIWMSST
Sequence of UniProt Q6P2M8 (whole entry, looked up): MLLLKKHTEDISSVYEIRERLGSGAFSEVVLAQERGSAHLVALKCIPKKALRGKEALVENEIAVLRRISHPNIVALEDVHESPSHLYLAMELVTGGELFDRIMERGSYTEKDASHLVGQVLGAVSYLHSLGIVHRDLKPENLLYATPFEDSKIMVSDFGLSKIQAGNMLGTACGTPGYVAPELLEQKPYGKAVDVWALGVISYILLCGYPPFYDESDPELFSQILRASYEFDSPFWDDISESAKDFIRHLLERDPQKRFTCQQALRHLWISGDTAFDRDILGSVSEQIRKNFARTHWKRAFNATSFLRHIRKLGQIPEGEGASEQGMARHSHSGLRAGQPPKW

Sample 1 — observed: cell-free assay; technique: competition with immobilised ligand; tested at: 0.1 µM; quantity: remaining binding
Structure (SMILES): O=C(NCCCC1CCCCC1)c1ccc(CNC(=O)c2cnn(-c3ccccc3)c2C(F)(F)F)cc1
NEK9 (Homo sapiens, UniProt Q8TD19): 100%
NEK6 (Homo sapiens, UniProt Q9HC98): 83%
CSNK1A1 (Homo sapiens, UniProt P48729): 99%
RIOK2 (Homo sapiens, UniProt Q9BVS4): 100%
PRKG1 (Homo sapiens, UniProt Q13976): 100%
CAMK2G (Homo sapiens, UniProt Q13555): 100%
CSNK1A1L (Homo sapiens, UniProt Q8N752): 94%
EGFR (Homo sapiens, UniProt P00533, A750P/del747-749): 100%
CDKL2 (Homo sapiens, UniProt Q92772): 100%
Ribosomal protein S6 kinase alpha-1, C-terminal kinase domain (RPS6KA1, Homo sapiens, UniProt Q15418): 100%
PIK3CB (Homo sapiens, UniProt P42338): 100%
MAP3K6 (Homo sapiens, UniProt O95382): 100%
IKBKE (Homo sapiens, UniProt Q14164): 78%
MAP3K2 (Homo sapiens, UniProt Q9Y2U5): 100%
STK11 (Homo sapiens, UniProt Q15831): 100%
MAST1 (Homo sapiens, UniProt Q9Y2H9): 88%
CDK16 (Homo sapiens, UniProt Q00536): 100%
PIK3CA (Homo sapiens, UniProt P42336, C420R): 85%
PKMYT1 (Homo sapiens, UniProt Q99640): 77%

Sample 2 — mode: inhibitor; tested at: 1 µM; quantity: inhibition
Structure (SMILES): CC#CC(=O)N1CCC[C@H]1c1nc(-c2ccc(C(=O)Nc3ccccn3)cc2)c2c(N)nccn12
FLT3 (Homo sapiens, UniProt P36888, D835H); enzyme activity: 1%
PNCK (Homo sapiens, UniProt Q6P2M8); cell-free assay: 0%
Cyclin-dependent kinase 4, with cyclin D1 (CDK4, Homo sapiens, UniProt P11802); enzyme activity: 0%
HASPIN (Homo sapiens, UniProt Q8TF76); enzyme activity: 1%
TEC (Homo sapiens, UniProt P42680); enzyme activity: 89%
MAPK15 (Homo sapiens, UniProt Q8TD08); enzyme activity: 0%
IRAK1 (Homo sapiens, UniProt P51617); enzyme activity: 1%
NTRK1 (Homo sapiens, UniProt P04629); enzyme activity: 51%
MUSK (Homo sapiens, UniProt O15146); enzyme activity: 4%
CDK11B (Homo sapiens, UniProt P21127); enzyme activity: 2%
EGFR (Homo sapiens, UniProt P00533, A750P/del747-749); enzyme activity: 3%
CSNK1G1 (Homo sapiens, UniProt Q9HCP0); enzyme activity: 0%
PTK6 (Homo sapiens, UniProt Q13882); enzyme activity: 11%

Sample 3 — observed: binding; technique: NanoBRET; cells: HEK293 (live); direction: lower = stronger binding; quantity: target engagement
SMILES: CC(=O)N1CCN(c2nc(OC[C@@H]3CCCN3C)nc3c2CCN(c2cccc4cccc(Cl)c24)C3)C[C@@H]1CC#N
Target: GTPase HRas (HRAS, Homo sapiens, UniProt P01112)
0.5686 µM: 96.4% and 101% and 106%
0.09151 µM: 102% and 92.9% and 100%
1.046 µM: 109% and 102% and 108%
1.523 µM: 120% and 141% and 116%

Sample 4 — observed: enzyme activity; mode: inhibitor; tested at: 0.5 µM; baseline: control; quantity: remaining activity
Target: Mitogen-activated protein kinase kinase kinase 2 (MAP3K2, Homo sapiens, UniProt Q9Y2U5)
Target sequence (Q9Y2U5 1-619): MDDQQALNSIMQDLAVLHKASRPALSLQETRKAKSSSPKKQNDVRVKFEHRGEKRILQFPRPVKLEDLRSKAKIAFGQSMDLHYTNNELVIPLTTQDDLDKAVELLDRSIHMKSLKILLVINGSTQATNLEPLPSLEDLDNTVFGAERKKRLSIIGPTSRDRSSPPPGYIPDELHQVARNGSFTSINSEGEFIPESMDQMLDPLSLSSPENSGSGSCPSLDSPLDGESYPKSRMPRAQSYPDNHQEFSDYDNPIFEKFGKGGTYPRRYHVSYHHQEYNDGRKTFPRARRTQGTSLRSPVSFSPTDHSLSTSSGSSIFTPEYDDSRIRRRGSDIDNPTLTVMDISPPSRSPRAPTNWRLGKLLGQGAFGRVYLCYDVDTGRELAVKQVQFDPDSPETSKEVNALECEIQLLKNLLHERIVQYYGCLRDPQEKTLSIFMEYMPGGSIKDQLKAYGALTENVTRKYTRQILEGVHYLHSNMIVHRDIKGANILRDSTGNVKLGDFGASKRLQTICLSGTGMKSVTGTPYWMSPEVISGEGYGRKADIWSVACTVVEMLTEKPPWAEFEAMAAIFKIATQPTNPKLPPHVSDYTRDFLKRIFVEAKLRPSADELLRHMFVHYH
N#Cc1c(NC(=O)c2cccc3ccccc23)sc2c1CCCC2: 84%
CCN(CC)C(=O)c1ccc(Nc2nc(OCC3CCCCC3)c3[nH]cnc3n2)cc1: 25.3%
N#C/C(=C\c1ccc(O)c(O)c1)C(=O)NCc1ccccc1: 99.8%
c1ccc(-c2[nH]ncc2-c2ccnc3ccccc23)nc1: 91.2%
COc1cc2ncnc(Nc3cccc(Cl)c3)c2cc1OC: 98.2%
Ic1cccc(CSc2nnc(-c3ccncc3)o2)c1: 106%
Nc1cccc(-c2cc3c(Oc4cccc(O)c4)ncnc3[nH]2)c1: 86.9%
Cc1cc2ncc(-c3ccccc3)nc2cc1C: 105%
c1ccc(-c2cnc(Nc3ccc(OCCN4CCCC4)cc3)s2)cc1: 104%
CN([C@@H](Cc1ccc(OS(=O)(=O)c2cccc3cnccc23)cc1)C(=O)N1CCN(c2ccccc2)CC1)S(=O)(=O)c1cccc2cnccc12: 98.9%
COc1cc2ncnc(Nc3ccc(O)c(Br)c3)c2cc1OC: 92.4%
Cc1nc2cc3nc(-c4cccs4)cnc3cc2n1C: 90.2%
O=C(Nc1cccc(Nc2nccc(Nc3cccc(C(F)(F)F)c3)n2)c1)C1CC1: 91.6%
COc1cc2c(cc1OC)-c1[nH]nc(Nc3cccc(F)c3)c1C2: 84.5%
C[C@@H]1CCN(C(=O)CC#N)C[C@@H]1N(C)c1ncnc2[nH]ccc12: 123%
CCN(CC)CCNC(=O)c1c(C)[nH]c(/C=C2\C(=O)Nc3ccc(Cl)cc32)c1C: 20.1%
Cc1cn(-c2cc(NC(=O)c3ccc(C)c(Nc4nccc(-c5cccnc5)n4)c3)cc(C(F)(F)F)c2)cn1: 124%
Cn1nc2c3c(cccc31)C(=O)c1ccccc1-2: 103%
O=C1c2ccccc2-c2n[nH]c3cccc1c23: 100%
O=C1C(Cl)=C(N2C(=O)CCC2=O)C(=O)c2ccccc21: 108%
CN(C)C[C@H]1CCn2c(c(C3=C(c4cn(C)c5ccccc45)C(=O)NC3=O)c3ccccc32)C1: 94.6%
O=c1cc(-c2cccc3c2Sc2ccccc2S3)oc(N2CCOCC2)c1: 92.7%
CCOc1nc(NC(=O)Cc2cc(OC)ccc2OC)cc(N)c1C#N: 92.5%

Repeated from above (sample 1):
PRKG1 (Homo sapiens, UniProt Q13976): 100%
CAMK2G (Homo sapiens, UniProt Q13555): 100%
PKMYT1 (Homo sapiens, UniProt Q99640): 77%
NEK9 (Homo sapiens, UniProt Q8TD19): 100%
Ribosomal protein S6 kinase alpha-1, C-terminal kinase domain (RPS6KA1, Homo sapiens, UniProt Q15418): 100%
CSNK1A1 (Homo sapiens, UniProt P48729): 99%
